Assay results from different studies.
Compare with care: the assays were run in different laboratories. ± gives the spread as reported.
Chain of UniProt Q9UNQ0 (whole entry, looked up): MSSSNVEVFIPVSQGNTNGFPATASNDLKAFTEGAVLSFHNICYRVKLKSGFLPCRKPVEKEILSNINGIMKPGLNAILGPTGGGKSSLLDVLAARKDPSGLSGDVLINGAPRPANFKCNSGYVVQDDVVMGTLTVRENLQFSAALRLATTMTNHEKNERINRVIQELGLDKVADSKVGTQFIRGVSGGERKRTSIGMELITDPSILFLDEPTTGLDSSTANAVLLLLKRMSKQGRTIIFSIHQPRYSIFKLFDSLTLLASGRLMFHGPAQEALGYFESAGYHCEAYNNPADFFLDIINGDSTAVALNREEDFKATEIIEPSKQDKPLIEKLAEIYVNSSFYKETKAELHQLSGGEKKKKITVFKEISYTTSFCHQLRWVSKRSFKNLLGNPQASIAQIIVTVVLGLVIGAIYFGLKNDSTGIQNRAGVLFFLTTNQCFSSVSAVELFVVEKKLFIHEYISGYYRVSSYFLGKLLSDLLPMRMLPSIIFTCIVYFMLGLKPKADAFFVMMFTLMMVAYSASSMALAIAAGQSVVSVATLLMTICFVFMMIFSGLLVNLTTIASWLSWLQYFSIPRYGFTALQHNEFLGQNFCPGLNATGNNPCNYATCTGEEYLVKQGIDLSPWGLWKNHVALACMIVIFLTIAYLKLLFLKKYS
Chain of UniProt P10635 (whole entry, looked up): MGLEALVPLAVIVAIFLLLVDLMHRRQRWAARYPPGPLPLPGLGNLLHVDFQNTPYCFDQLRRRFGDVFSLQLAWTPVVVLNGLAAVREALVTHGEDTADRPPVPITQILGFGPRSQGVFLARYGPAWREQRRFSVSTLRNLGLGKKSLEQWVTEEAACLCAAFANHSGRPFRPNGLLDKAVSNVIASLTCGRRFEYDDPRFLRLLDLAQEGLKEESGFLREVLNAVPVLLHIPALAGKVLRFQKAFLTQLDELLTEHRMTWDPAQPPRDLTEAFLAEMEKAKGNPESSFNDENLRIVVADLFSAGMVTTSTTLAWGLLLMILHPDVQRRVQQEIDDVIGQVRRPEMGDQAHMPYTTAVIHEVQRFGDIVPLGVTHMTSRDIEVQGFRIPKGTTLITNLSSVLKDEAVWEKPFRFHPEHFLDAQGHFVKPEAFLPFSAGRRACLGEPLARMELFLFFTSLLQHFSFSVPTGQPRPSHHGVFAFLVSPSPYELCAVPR

| Structure (SMILES) | tested on | test | test system | setting | scale | measurement | result |
| --- | --- | --- | --- | --- | --- | --- | --- |
| N#C[C@@H]1CC(F)(F)CN1C(=O)CNC(=O)c1ccnc2c(NC(=O)CCOCCOCCOCCOCCOCCOCCNC(=O)[C@H](CCCCNC(=O)CN3CCN(CC(=O)[O-])CCN(CC(=O)[O-])CCN(CC(=O)[O-])CC3)NC(=O)CCCc3ccc(I)cc3)cccc12.[177Lu+3] | U-87 MG tumour model | – | host not given, muscle | 1 h, tumour-bearing | – | tracer uptake | 1.54 %ID/g |
| N#Cc1cccc(-c2ccc(=O)n(Cc3cccc(-c4ncc(OCC5CCN(CC(=O)N6CCN(c7ccc8c(c7)C(=O)N(C7CCC(=O)NC7=O)C8=O)CC6)CC5)cn4)c3)n2)c1 (stereo not drawn) | Caco-2 | transwell monolayer | – | 2 µM, 120 min, pH 7.4, 0.1% DMSO | – | efflux ratio | 12.8 |
| N#C[C@@H]1CCCN1C(=O)CNC(=O)c1ccnc2ccc(OCCCN3CCN(C(=O)CCc4ccc(O)c(CN5CCN6CC(=O)[O][Al-]([18F])([O]C(=O)C5)[O]c5ccc(CCC(=O)N7CCN(CCCOc8ccc9nccc(C(=O)NCC(=O)N%10CCC[C@H]%10C#N)c9c8)CC7)cc5C6)c4)CC3)cc12 (stereo partly drawn) | U-87 MG tumour model | – | host not given, bone | 1 h, tumour-bearing | – | tracer uptake | 10.2 %ID/g |
| N#C[C@@H]1CC(F)(F)CN1C(=O)CNC(=O)c1ccnc2c(NC(=O)[C@H](CCCCNC(=O)CCOCCOCCOCCOCCOCCOCCNC(=O)CN3CCN(CC(=O)[O-])CCN(CC(=O)[O-])CCN(CC(=O)[O-])CC3)NC(=O)CCCc3ccc(I)cc3)cccc12.[177Lu+3] | U-87 MG tumour model | – | host not given, tumour | 24 h, tumour-bearing | – | tracer uptake | 22.2 %ID/g |
| CNC(=O)C1CCCN(C(=O)C2CC3CCC2N3C(=O)[C@@H]2C[C@@H](O)CN2C(=O)NCc2cccc(Cl)c2F)C1 (mixture of isomers) | Cytochrome P450 2D6 (CYP2D6, Homo sapiens, UniProt P10635) | enzyme activity, inhibitor, time-dependent inhibition | – | 0.206 µM, preincubated with NADPH | relative to: negative control | remaining activity | 96.6% |
| O=C(N/N=C/c1cc[n+](Cc2ccccc2)c2ccccc12)c1ccc2ccc3ccc(C(=O)N/N=C/c4cc[n+](Cc5ccccc5)c5ccccc45)nc3c2n1 | MYC parallel G4 DNA | FRET melting | – | 1 µM, DNA 0.2 µM, together with: duplex DNA competitor 10 µM | – | ΔTm | 9.2 ± 0.3 °C |
| C=C(NC(=O)c1csc(-c2nc3c(cc2O)-c2nc(cs2)C(=O)NC(C(C)O)C(=O)NC(=C(C)OC)c2nc(cs2)C(=O)NC2c4nc(cs4)C(=O)NC(COC(=O)c4c5c6c(cccc6n4O)COC(=O)C(OC4CC(C)(O)C(N(C)C)C(C)O4)C2OC5)c2nc-3cs2)n1)C(N)=O (stereo not drawn) | – | – | male cynomolgus monkey, plasma | intravenous, 9 mg/kg, single dose, infusion | – | Tmax | 0.53 h |
| C=C1CC[C@H](OCCCNC(=O)CCOCCOCCOCCOCCOCCOCCOCCOCCOCCOCCOCCOCCOCCOCCOCCOCCOCCOCCOCCOCCOCCOCCOCCOCCOCCOCCOCCOCCOCCOCCOCCOCCOCCOCCOCCOCCNC(=O)CCN2C(=O)CC(SC[C@H](NC(=O)[C@H](Cc3ccccc3)NC(=O)[C@H](CC(N)=O)NC(=O)[C@H](Cc3c[nH]cn3)NC(=O)[C@@H](NC(=O)[C@H](CC(=O)O)NC(=O)[C@H](CCC(N)=O)NC(=O)[C@H](CC(C)C)NC(=O)[C@H](CCCCN)NC(=O)[C@H](CCCCN)NC(=O)[C@H](CCCNC(=N)N)NC(=O)[C@H](CC(C)C)NC(=O)[C@H](Cc3c[nH]c4ccccc34)NC(=O)[C@H](CCC(=O)O)NC(=O)[C@@H](NC(=O)[C@H](CCCNC(=N)N)NC(=O)[C@H](CCC(=O)O)NC(=O)[C@H](CCSC)NC(=O)[C@H](CO)NC(=O)[C@H](CC(N)=O)NC(=O)[C@H](CC(C)C)NC(=O)[C@H](Cc3c[nH]cn3)NC(=O)[C@H](CCCCN)NC(=O)CNC(=O)[C@H](CC(C)C)NC(=O)[C@H](CC(N)=O)NC(=O)[C@H](Cc3c[nH]cn3)NC(=O)[C@H](CCSC)NC(=O)[C@H](CC(C)C)NC(=O)[C@H](CCC(N)=O)NC(=O)[C@@H](NC(=O)[C@H](CCC(=O)O)NC(=O)[C@H](CO)NC(=O)[C@@H](NC(=O)[C@@H](N)CO)C(C)C)[C@@H](C)CC)C(C)C)C(C)C)C(=O)O)C2=O)C/C1=C/C=C1\CCC[C@]2(C)[C@@H]([C@H](C)CCCC(C)(C)O)CC[C@@H]12 (stereo partly drawn) | – | – | male cynomolgus monkey, plasma | subcutaneous, 0.02 mg/kg, single dose | – | Tmax | 4 h |
| C[n+]1cccc2cc(/C=N/NC(=O)c3cccc(C(=O)N/N=C/c4ccc5c(ccc[n+]5C)c4)n3)ccc21 | MYC parallel G4 DNA | FRET melting | – | 1 µM, DNA 0.2 µM | – | ΔTm | 9.9 ± 0.5 °C |
| CCCCCC(=O)N[C@@H](Cc1ccc(NC(=O)OC(C)(C)C)cc1)C(=O)N[C@@H](CCCC)C(=O)N[C@@H](CC(C)C)C(=O)[C@@]1(C)CO1 | Trypanosoma brucei brucei | – | HepG2 cells, Lister 427 | – | relative to: HepG2 CC50 over T. brucei EC50 | selectivity index | < 1 |
| COc1cccc(OC)c1-c1cc(C(=O)NC2(C(=O)O)C3CC4CC(C3)CC2C4)nn1-c1ccc(C(=O)N(C)CCCN(C)CCCN(C)C(=O)[C@H](CCCCNC(=O)[C@H](CC(C)C)NC(=O)C2OC2C(=O)O)NC(=O)CN2CCN(CC(=O)[O-])CCN(CC(=O)[O-])CCN(CC(=O)[O-])CC2)cc1C(C)C.[177Lu+3] (mixture of isomers) | HT-29 tumour model | – | host not given, bone | 72 h, tumour-bearing | – | tracer uptake | 0.19 %ID/g |
| CC(C)OCCOCc1ccc(OCC(O)CN(N=O)C(C)C)cc1 (stereo not drawn) | Escherichia coli | enhanced Ames test | WP2 uvrA | 5000 µg/plate, 30% hamster S9 | relative to: solvent control | revertant fold increase | 1.1 fold |
| COC1CN([C@H]2CC[C@H]([C@@]3(C)Oc4c(Cl)cc(C(=O)NCc5c(SC)cc(C)[nH]c5=O)c(C)c4O3)CC2)C1 | – | RNA-seq, refers to: UPP1 | human, whole blood | dose not given, 24 h | relative to: pretreatment baseline | log2 fold change | 1.14 |
| O=C1NC2(CC2)COc2ncc(F)cc2[C@H]2COCCN2c2ccn3ncc1c3n2 | Salmonella typhimurium | Ames test | TA102 | 50 µg/plate, 48 h, together with: rat liver S9 | – | revertant colonies | 398 ± 44 revertants/plate |
| CNc1nc(N)nc2c1ncn2[C@@H]1O[C@H](CO)[C@@H](O)[C@@]1(C)F | ABCG2 (Homo sapiens, UniProt Q9UNQ0) | bidirectional transport | MDCKII transfected with human BCRP | 10 µM | – | efflux ratio | 3.97 ± 0.29 |

For quick reference, copied from above:
| Structure (SMILES) | tested on | test | test system | setting | scale | measurement | result |
| --- | --- | --- | --- | --- | --- | --- | --- |
| CC(C)OCCOCc1ccc(OCC(O)CN(N=O)C(C)C)cc1 (stereo not drawn) | Escherichia coli | enhanced Ames test | WP2 uvrA | 5000 µg/plate, 30% hamster S9 | relative to: solvent control | revertant fold increase | 1.1 fold |
| O=C(N/N=C/c1cc[n+](Cc2ccccc2)c2ccccc12)c1ccc2ccc3ccc(C(=O)N/N=C/c4cc[n+](Cc5ccccc5)c5ccccc45)nc3c2n1 | MYC parallel G4 DNA | FRET melting | – | 1 µM, DNA 0.2 µM, together with: duplex DNA competitor 10 µM | – | ΔTm | 9.2 ± 0.3 °C |
